Published values of several laboratories.
Numbered parts are unrelated; each lists some results of a single study.
Sequence of UniProt P78368 (whole entry, looked up): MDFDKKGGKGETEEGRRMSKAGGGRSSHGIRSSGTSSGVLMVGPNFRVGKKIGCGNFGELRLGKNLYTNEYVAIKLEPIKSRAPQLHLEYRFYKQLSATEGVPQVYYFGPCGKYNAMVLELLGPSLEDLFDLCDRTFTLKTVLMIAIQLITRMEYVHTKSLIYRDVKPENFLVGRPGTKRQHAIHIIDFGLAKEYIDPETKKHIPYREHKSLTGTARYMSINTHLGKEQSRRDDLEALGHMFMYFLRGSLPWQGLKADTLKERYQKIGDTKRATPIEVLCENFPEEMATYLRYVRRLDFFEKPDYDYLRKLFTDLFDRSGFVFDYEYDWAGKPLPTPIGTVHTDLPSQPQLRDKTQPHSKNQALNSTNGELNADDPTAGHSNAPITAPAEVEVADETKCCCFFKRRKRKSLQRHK
Sequence of UniProt P30291 (whole entry, looked up): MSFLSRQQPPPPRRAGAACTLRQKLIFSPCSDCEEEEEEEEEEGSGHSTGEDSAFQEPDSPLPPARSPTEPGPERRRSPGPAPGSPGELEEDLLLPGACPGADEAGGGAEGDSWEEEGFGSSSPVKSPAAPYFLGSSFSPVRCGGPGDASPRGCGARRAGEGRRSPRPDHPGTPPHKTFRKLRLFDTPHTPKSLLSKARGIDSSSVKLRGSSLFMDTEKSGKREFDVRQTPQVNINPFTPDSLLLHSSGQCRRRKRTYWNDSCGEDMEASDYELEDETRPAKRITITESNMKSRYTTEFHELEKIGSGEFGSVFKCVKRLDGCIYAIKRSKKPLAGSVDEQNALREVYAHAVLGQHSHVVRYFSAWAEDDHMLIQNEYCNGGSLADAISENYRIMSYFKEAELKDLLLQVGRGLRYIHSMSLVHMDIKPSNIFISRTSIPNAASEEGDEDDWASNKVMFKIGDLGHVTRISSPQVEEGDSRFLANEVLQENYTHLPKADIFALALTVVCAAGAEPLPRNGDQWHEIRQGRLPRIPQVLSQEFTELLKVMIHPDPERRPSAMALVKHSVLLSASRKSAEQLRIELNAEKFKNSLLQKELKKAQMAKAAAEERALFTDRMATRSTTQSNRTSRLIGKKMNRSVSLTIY
Sequence of UniProt Q52WX2 (whole entry, looked up): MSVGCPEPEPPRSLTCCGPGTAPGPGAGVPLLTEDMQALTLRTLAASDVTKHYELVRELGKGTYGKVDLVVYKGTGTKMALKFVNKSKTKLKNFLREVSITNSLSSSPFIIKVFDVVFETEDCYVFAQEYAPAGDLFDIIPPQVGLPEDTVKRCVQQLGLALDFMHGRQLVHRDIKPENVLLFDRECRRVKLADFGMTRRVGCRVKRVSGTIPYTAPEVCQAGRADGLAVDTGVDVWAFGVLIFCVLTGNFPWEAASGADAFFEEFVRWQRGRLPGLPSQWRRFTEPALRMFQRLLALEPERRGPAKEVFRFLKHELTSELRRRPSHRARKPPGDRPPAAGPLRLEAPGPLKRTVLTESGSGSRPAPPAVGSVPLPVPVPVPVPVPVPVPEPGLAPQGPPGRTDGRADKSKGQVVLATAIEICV
Sequence of UniProt P52333 (whole entry, looked up): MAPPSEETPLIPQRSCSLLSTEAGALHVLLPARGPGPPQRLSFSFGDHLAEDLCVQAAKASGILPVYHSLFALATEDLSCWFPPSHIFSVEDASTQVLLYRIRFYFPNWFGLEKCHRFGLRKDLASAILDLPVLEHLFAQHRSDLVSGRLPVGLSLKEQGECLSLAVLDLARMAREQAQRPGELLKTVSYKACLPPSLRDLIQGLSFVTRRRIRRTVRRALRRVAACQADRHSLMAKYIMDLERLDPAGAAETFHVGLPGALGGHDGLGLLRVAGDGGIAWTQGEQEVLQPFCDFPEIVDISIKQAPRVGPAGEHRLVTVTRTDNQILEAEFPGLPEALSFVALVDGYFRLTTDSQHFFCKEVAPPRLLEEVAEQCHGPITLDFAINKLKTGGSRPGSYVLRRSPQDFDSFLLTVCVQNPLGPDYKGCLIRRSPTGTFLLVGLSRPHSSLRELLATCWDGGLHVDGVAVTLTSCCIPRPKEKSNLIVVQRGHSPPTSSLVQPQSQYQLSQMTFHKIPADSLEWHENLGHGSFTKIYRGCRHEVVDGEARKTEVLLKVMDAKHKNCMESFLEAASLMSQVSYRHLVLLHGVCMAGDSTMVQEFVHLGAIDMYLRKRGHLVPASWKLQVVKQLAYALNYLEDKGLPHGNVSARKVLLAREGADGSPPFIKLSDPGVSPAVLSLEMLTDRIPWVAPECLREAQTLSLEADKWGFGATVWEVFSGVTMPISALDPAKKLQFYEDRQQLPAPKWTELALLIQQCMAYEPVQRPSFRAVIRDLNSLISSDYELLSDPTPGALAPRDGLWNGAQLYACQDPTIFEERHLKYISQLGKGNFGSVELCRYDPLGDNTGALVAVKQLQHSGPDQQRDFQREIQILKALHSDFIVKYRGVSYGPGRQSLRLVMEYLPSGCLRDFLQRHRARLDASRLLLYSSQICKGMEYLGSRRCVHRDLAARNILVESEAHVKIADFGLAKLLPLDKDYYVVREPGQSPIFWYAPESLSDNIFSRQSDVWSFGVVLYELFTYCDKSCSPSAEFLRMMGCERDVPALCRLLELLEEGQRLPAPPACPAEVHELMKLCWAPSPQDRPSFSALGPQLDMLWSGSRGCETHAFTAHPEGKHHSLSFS
Sequence of UniProt Q15349 (whole entry, looked up): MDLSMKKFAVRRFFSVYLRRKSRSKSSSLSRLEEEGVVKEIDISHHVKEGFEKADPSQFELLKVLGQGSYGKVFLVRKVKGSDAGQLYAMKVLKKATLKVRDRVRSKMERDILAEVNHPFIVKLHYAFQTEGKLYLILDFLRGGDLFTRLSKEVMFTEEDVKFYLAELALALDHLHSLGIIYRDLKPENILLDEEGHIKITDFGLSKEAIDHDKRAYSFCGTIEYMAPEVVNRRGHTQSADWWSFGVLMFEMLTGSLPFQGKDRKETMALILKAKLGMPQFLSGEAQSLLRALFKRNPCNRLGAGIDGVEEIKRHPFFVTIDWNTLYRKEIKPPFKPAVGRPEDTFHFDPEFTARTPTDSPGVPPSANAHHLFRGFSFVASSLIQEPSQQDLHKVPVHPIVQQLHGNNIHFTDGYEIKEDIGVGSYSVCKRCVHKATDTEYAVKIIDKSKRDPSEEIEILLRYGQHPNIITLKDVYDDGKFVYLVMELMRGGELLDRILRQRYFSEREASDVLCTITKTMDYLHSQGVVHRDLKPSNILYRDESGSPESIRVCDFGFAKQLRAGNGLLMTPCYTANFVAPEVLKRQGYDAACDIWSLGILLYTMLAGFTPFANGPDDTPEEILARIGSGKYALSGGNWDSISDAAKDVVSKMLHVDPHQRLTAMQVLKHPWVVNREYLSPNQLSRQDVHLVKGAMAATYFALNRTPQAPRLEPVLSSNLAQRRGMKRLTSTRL
Sequence of UniProt Q8IYT8 (whole entry, looked up): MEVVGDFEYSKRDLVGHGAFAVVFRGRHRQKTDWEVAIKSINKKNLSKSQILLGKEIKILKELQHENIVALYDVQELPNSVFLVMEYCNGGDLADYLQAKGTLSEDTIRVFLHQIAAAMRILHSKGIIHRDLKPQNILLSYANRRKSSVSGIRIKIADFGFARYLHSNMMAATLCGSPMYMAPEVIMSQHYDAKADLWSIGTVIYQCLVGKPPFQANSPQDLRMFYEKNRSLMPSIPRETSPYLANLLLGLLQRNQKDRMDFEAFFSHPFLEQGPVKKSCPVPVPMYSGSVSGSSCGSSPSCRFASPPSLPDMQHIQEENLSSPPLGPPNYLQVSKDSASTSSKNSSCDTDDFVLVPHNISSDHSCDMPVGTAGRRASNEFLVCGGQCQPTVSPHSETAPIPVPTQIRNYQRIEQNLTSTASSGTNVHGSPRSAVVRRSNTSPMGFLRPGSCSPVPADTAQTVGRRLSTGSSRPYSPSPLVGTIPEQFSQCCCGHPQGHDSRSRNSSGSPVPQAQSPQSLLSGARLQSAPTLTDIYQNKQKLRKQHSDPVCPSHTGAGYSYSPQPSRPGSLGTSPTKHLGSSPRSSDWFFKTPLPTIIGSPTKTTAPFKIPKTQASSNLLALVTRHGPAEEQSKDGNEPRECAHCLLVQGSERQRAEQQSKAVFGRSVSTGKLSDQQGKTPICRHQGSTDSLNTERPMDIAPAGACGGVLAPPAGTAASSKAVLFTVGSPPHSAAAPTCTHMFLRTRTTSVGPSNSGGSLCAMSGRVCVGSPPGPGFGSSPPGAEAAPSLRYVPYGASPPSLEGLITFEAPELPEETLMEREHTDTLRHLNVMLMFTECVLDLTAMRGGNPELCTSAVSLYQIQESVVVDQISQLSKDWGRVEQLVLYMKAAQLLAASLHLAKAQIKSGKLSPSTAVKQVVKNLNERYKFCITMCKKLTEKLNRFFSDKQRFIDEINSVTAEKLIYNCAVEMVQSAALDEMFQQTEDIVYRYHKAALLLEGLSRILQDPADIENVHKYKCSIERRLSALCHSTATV
Sequence of UniProt Q00537 (whole entry, looked up): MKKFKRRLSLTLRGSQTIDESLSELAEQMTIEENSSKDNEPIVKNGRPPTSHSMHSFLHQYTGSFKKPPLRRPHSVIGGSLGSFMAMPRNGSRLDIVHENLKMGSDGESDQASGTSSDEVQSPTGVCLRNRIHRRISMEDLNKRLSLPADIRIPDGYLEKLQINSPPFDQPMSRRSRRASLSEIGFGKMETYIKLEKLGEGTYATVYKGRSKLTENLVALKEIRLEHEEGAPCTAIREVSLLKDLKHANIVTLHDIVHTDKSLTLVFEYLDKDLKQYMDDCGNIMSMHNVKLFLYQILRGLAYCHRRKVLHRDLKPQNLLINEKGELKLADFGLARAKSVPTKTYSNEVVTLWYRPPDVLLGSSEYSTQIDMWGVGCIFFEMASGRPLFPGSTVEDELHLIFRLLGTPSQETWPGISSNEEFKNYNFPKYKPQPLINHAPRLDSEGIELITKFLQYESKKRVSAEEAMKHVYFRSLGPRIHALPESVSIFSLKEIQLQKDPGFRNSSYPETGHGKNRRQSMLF

Set 1 — observed: enzyme activity; mode: inhibitor; tested at: 0.5 µM; relative to: control
SMILES: Nc1[nH]nc2nnc(-c3c(-c4ccccc4)nn4ccccc34)cc12
For Serine/threonine-protein kinase ULK2 (ULK2, Homo sapiens, UniProt Q8IYT8): remaining activity read 100%.
For Angiopoietin-1 receptor (TEK, Homo sapiens, UniProt Q02763): remaining activity read 96.6%.
It gave 92.4% for remaining activity (Wee1-like protein kinase (WEE1, Homo sapiens, UniProt P30291)).
Macrophage-stimulating protein receptor (MST1R, Homo sapiens, UniProt Q04912) — remaining activity: 102%.
It gave 102% for remaining activity (Fibroblast growth factor receptor 3 (FGFR3, Homo sapiens, UniProt P22607)).
It gave 109% for remaining activity (Serine/threonine-protein kinase Nek1 (NEK1, Homo sapiens, UniProt Q96PY6)).
The remaining activity was 96.7% (Rhodopsin kinase GRK7 (GRK7, Homo sapiens, UniProt Q8WTQ7)).
It gave 99.3% for remaining activity (Mitogen-activated protein kinase kinase kinase 5 (MAP3K5, Homo sapiens, UniProt Q99683)).
The remaining activity was 57.5% (Tyrosine-protein kinase ABL2 (ABL2, Homo sapiens, UniProt P42684)).
The remaining activity was 96.5% (Ribosomal protein S6 kinase alpha-2 (RPS6KA2, Homo sapiens, UniProt Q15349)).
The remaining activity was 105% (Tyrosine-protein kinase JAK3 (JAK3, Homo sapiens, UniProt P52333)).
The remaining activity was 101% (Tyrosine-protein kinase FRK (FRK, Homo sapiens, UniProt P42685)).
The remaining activity was 97.8% (Ephrin type-A receptor 3 (EPHA3, Homo sapiens, UniProt P29320)).
Casein kinase I isoform gamma-2 (CSNK1G2, Homo sapiens, UniProt P78368) — remaining activity: 93.7%.

Set 2 — observed: cell-free assay; technique: competition with immobilised ligand; tested at: 1 µM
SMILES: COc1ccc2c(O[C@@H]3C[C@H]4C(=O)N[C@]5(C(=O)O)CC5/C=C\CCCCC[C@H](NC(=O)OC5CCCC5)C(=O)N4C3)cc(-c3csc(NC(=O)C(C)C)n3)nc2c1C (some centres unmarked)
For Activin receptor type-1B (ACVR1B, Homo sapiens, UniProt P36896): remaining binding read 100%.
Receptor-type tyrosine-protein kinase FLT3, autoinhibited (FLT3, Homo sapiens, UniProt P36888) — remaining binding: 87%.
It gave 100% for remaining binding (SRSF protein kinase 1 (SRPK1, Homo sapiens, UniProt Q96SB4)).
Cyclin-dependent kinase 13 (CDK13, Homo sapiens, UniProt Q14004) — remaining binding: 77%.
Cyclin-dependent kinase 17 (CDK17, Homo sapiens, UniProt Q00537) — remaining binding: 100%.
It gave 98% for remaining binding (Serine/threonine-protein kinase SBK1 (SBK1, Homo sapiens, UniProt Q52WX2)).

Set 3 — technique: universal PBM; form: double-stranded DNA, one strand shown; matrix: in vitro; tested at: not given; reading: higher = stronger binding
Target: Sal-like protein 4, full length isoform B (SALL4, Homo sapiens, UniProt Q9UJQ4-2, residues 1-616)
Notes: 8-mer, flanks averaged, mean of replicates
The E-score of `GTAAGATA` is reported as 0.25.
`GGCCAGAA` gave an E-score of -0.178.
With `TACAACCA` the E-score was 0.122.
`AAGAGCAG` has an E-score of -0.0515.
`CAGCTGAC` has an E-score of -0.177.
With `CTAATGCC` the E-score was -0.0765.
The E-score of `GGGAATGA` is reported as 0.0884.
For `CCACGCAC`, the E-score was -0.129.

Single results of other studies
`TBL3 (Homo sapiens, UniProt Q12788)` — result for cross-linked residues: “E765 to K716” (WDR36 (Homo sapiens, UniProt Q8NI36); cross-linking MS; cell fractions; added: DMTMM).

Repeated from above (set 1):
The remaining activity was 101% (Tyrosine-protein kinase FRK (FRK, Homo sapiens, UniProt P42685)).
Macrophage-stimulating protein receptor (MST1R, Homo sapiens, UniProt Q04912) — remaining activity: 102%.
